Values quoted from earlier work, collected from citations in different studies.
Each line is one published result; not all experiments were run side by side.
Chain of UniProt Q15303 (whole entry, looked up): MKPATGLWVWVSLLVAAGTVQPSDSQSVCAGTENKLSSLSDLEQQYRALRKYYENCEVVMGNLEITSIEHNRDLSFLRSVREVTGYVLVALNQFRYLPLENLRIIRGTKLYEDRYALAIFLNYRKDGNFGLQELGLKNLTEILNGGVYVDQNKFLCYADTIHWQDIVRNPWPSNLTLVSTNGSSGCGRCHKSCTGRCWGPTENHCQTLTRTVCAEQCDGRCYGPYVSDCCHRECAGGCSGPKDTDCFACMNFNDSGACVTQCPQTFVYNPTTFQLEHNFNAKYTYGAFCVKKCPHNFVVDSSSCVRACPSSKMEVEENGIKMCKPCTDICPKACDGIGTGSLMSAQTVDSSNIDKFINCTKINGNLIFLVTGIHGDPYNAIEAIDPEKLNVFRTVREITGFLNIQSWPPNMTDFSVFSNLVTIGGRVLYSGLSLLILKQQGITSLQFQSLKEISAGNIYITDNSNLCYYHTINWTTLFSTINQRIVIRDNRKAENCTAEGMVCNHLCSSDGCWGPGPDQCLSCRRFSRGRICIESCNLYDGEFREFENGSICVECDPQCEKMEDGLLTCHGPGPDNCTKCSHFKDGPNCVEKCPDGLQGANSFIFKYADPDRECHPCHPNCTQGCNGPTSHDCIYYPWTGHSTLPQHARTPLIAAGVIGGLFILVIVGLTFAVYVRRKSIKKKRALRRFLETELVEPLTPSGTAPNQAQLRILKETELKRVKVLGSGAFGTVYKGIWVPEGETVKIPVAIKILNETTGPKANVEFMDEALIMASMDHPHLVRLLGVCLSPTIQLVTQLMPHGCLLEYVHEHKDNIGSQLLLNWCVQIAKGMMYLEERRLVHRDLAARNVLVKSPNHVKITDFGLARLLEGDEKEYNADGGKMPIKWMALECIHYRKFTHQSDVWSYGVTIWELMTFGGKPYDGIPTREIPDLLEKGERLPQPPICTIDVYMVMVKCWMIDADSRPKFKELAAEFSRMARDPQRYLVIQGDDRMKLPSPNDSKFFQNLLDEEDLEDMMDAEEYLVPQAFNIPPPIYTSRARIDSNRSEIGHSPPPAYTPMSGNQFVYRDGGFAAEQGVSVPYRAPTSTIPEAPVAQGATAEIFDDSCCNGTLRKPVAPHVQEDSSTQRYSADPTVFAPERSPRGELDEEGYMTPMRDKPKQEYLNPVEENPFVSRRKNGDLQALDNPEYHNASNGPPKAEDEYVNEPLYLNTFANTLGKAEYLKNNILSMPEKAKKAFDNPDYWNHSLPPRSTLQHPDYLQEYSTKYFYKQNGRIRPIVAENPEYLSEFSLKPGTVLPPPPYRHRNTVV

CC(=O)N[C@@H](CS)C(=O)O — pKa (thiol group): 9.52
O=C(O)C(F)(F)F — pKa (literature value, method not stated): 0.52
C=CC(=O)N1C[C@H](Nc2ncnc3[nH]ccc23)CC[C@@H]1C — pKa: 4.85
NCc1ccc(Br)cc1 — pKa (amine, free unbound form): 9.1
Cc1ncc(C[n+]2csc(CCO)c2C)c(N)n1 — pKa: ~4.8
Nc1cc(C(F)(F)F)c(-c2nc(N3CCOCC3)nc(N3CCOCC3)n2)cn1 — remaining activity (ERBB4 (Homo sapiens, UniProt Q15303); enzyme activity; 10 µM; baseline: untreated): 79%
O=c1ccc2nc3ccc(O)cc3oc-2c1 — pKa: ~6
CC(O)C(C)n1ncn(-c2ccc(N3CCN(c4ccc(OCC5COC(Cn6cncn6)(c6ccc(Cl)cc6Cl)O5)cc4)CC3)cc2)c1=O (stereo not drawn) — pKa (basic group): 3.7
CCCCNC(=O)NS(=O)(=O)c1ccc(C)cc1 — pKa (NMR; phospholipid bilayer membrane): ~7
O=C(c1ccccc1)c1ccc2n1CCC2C(=O)O (stereo not drawn) — pKa: ~3.5
Cn1cncc1[C@@](N)(c1ccc(Cl)cc1)c1ccc2c(c1)c(-c1cccc(Cl)c1)cc(=O)n2C — pKa (ionisation site 1): 6.1
CC(C)c1nc(N(C)S(C)(=O)=O)nc(-c2ccc(F)cc2)c1/C=C/[C@@H](O)C[C@@H](O)CC(=O)O — pKa (Simcyp input parameter): 4.27
COc1ccc(CN)cc1 — pKa (amine, free unbound form): 9.6
CNCCN1C(=O)[C@H](OC(C)=O)[C@H](c2ccc(OC)cc2)Sc2ccccc21 — pKa: 8.06
CC1(C)C[C@@H]1C(=O)N/C(=C\CCCCSC[C@H](N)C(=O)O)C(=O)O — pKa: 2.1
CC(C)(C)c1cc(C(C)(C)C)c(NC(=O)c2c[nH]c3ccccc3c2=O)cc1O — pKa (diprotic acid): 11.6
NCCCC[C@H](N)C(=O)O — pKa: ~10
CC(O)c1cc(C(=O)N[C@@H](C)Cn2ccc(-c3ccc(C#N)c(Cl)c3)n2)[nH]n1 (stereo partly drawn) — pKa (monoprotic base): 2.4
C=C(C)C(=O)O — pKa: ~4
CCCCCCCC(=O)O — pKa (literature value; vs non-fluorinated acids): 4.76
CCN(CC)c1ccc2c(-c3ccccc3C(=O)O)c3ccc(=[N+](CC)CC)cc-3oc2c1 — pKa (cation to zwitterion): 3.7

Repeated from above:
Nc1cc(C(F)(F)F)c(-c2nc(N3CCOCC3)nc(N3CCOCC3)n2)cn1 — remaining activity (ERBB4 (Homo sapiens, UniProt Q15303); enzyme activity; 10 µM; baseline: untreated): 79%
